{"data": "Published values pooled from the literature", "note": "Compare with care: the assays were run in different laboratories."}
{"Structure (SMILES)": "CN1C(=O)[C@@H](NC(=O)c2nnc(Cc3ccccc3)[nH]2)COc2cccnc21", "system": "healthy human, fasted, plasma", "conditions": "oral, 800 mg single dose, geometric mean", "endpoint": "Vz/F", "result": "112 L"}
{"Structure (SMILES)": "C[C@@H](c1ccc2nccn2c1)n1nnc2ncc(-c3cnn(C)c3)nc21", "system": "human, plasma", "conditions": "oral, 300 mg, cycle 2 day 1, multiple doses", "endpoint": "Vz/F", "result": "180 L"}
{"Structure (SMILES)": "N#Cc1ccc2c(c1)[C@H]1CCCN(C(=O)c3ccc4[nH]cnc4c3)[C@H]1C2", "system": "human, plasma", "conditions": "oral, 240 mg once daily, steady state", "endpoint": "Vz/F steady state", "result": "762 L"}
{"Structure (SMILES)": "C[C@H](Oc1ccc(Br)cc1-c1ccon1)C(=O)O", "system": "healthy male humans, plasma", "conditions": "oral, 400 mg once daily, day 10", "endpoint": "Vz/F", "result": "33.5 L"}
{"Structure (SMILES)": "CN(C)C(=O)c1cc2cnc(Nc3ccc(N4CCNCC4)cn3)nc2n1C1CCCC1", "system": "human, moderate renal impairment, plasma", "conditions": "oral, 400 mg, geometric mean", "endpoint": "Vz/F", "result": "3640 L"}
{"Structure (SMILES)": "C#C[C@]1(CO)O[C@@H](n2cnc3c(N)nc(F)nc32)C[C@@H]1O", "system": "human, plasma", "conditions": "oral, 30 mg, single dose, geometric mean", "endpoint": "Vz/F", "result": "1870 L"}
{"Structure (SMILES)": "Cn1cc(-c2cn3nccc3c(-c3cnn([C@]4(CC#N)C[C@@H](C#N)C4)c3)n2)cn1", "system": "healthy human", "conditions": "400 mg once daily", "endpoint": "Vz/F", "result": "519 L"}
{"Structure (SMILES)": "Fc1ccc([C@@H]2CCNC[C@H]2COc2ccc3c(c2)OCO3)cc1", "system": "human, CYP2D6 intermediate metabolizers", "conditions": "oral, 20 mg, steady state, geometric mean", "endpoint": "Vz/F", "result": "834 L"}
{"note": "Excerpt of the above:"}
{"Structure (SMILES)": "C#C[C@]1(CO)O[C@@H](n2cnc3c(N)nc(F)nc32)C[C@@H]1O", "system": "human, plasma", "conditions": "oral, 30 mg, single dose, geometric mean", "endpoint": "Vz/F", "result": "1870 L"}
